Experimental data of several laboratories.
Parts stem from different laboratories: compare values within a part only. Changes are numbered by the printed parent chain.
Chain of UniProt Q9NYY3 (whole entry, looked up): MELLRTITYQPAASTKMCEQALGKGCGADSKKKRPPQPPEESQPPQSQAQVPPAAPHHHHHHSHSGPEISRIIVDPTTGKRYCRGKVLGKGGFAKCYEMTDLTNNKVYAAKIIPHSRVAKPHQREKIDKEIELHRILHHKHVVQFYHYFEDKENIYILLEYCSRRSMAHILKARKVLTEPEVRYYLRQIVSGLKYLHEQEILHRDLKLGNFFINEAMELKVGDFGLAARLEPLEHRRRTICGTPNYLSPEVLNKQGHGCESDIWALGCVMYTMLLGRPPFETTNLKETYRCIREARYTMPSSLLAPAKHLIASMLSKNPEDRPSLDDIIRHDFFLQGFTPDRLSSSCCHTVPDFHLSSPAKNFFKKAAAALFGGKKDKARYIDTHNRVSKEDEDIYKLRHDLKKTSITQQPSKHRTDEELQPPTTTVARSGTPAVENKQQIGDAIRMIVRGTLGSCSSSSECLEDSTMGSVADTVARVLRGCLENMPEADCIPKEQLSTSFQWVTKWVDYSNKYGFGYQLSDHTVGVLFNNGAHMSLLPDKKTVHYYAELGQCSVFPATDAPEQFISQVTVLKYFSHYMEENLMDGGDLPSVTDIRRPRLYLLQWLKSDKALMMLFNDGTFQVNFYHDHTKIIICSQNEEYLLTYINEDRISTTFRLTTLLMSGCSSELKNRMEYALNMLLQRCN
Chain of UniProt P42680 (whole entry, looked up): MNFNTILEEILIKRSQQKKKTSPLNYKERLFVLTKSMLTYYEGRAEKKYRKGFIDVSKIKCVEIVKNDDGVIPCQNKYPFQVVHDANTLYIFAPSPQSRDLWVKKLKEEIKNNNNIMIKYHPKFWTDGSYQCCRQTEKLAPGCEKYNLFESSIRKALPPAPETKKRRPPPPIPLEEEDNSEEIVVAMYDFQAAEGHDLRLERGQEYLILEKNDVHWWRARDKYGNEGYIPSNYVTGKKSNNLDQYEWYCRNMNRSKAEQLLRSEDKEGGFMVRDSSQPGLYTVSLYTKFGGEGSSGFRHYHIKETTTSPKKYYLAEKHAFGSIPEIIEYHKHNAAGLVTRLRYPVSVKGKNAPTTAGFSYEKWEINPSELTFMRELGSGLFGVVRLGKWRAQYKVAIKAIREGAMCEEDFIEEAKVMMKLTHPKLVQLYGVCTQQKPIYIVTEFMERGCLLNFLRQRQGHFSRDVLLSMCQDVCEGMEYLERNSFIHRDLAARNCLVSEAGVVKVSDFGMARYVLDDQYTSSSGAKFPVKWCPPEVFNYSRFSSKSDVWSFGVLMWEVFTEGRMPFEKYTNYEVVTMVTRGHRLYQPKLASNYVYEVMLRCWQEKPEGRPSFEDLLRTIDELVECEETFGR

Series 1 — target: XBP1, bZIP domain (human); technique: DHFR protein complementation; medium: yeast; relative to: wild-type JUN-FOS pair; direction: higher = stronger binding
Notes: single substitutions, most at no-binding floor
Starting sequence: JUN, bZIP domain (human); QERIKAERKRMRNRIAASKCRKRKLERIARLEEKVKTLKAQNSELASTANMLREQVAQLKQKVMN; partner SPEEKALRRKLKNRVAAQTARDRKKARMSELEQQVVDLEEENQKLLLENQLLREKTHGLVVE
| Substitution | binding fitness [natural log] |
| --- | --- |
| R30N | -0.883 |
| S43N | -0.711 |
| A46H | -0.569 |
| L38N | -1.42 |
| E32N | -1.41 |
| L38P | -1.51 |
| A40D | -0.853 |
| M51V | -0.718 |

Series 2 — technique: DHFR PCA, deep sequencing; medium: yeast; with: (+)-ABA 200 µM; relative to: wild-type fitted maximum; direction: higher = stronger binding
Target: ABI1, truncated, D143A, DHFR fusion (Arabidopsis thaliana)
Notes: methotrexate growth selection, single substitutions
Starting sequence: PYL1, truncated, DHFR fusion (Arabidopsis thaliana); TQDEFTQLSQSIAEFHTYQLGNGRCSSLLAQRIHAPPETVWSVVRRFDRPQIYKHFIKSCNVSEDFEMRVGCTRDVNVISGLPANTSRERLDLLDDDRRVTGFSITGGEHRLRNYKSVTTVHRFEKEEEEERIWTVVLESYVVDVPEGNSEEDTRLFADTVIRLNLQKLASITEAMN; partner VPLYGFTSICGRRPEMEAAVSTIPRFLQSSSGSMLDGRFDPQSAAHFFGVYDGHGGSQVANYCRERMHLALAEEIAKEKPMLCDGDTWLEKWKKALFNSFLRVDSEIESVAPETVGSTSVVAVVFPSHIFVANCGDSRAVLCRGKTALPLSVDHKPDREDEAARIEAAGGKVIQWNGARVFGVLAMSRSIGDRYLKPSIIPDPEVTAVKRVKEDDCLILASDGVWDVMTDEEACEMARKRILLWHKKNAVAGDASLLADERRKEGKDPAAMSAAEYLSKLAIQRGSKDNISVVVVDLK
| Substitution | relative binding score [%] |
| --- | --- |
| N85M | 98.2 |
| S87H | 10.5 |
| V43D | -1.99 |
| L29W | 50.9 |
| S27M | 55.5 |
| D65W | 80.3 |
| N61Q | 109 |
| F5W | 97.4 |

Further values, each from its own experiment
| Structure (SMILES) | target | test | conditions | scale | endpoint | result |
| --- | --- | --- | --- | --- | --- | --- |
| CNCc1ccccc1-c1csc([C@@H](C)Nc2nc(C)nc3cc(OC)c(OC)cc23)c1 | PLK2 (Homo sapiens, UniProt Q9NYY3) | cell-free assay, competition with immobilised ligand | 1 µM |  | remaining binding | 82% |
| Cc1ccc(S(=O)(=O)/C=C/C#N)cc1 | TEC (Homo sapiens, UniProt P42680) | enzyme activity, inhibitor | 0.5 µM | relative to: control | remaining activity | 144% |

Some of these lines once more (series 2):
| Substitution | relative binding score [%] |
| --- | --- |
| S87H | 10.5 |
